Published values pooled from the literature.
Compare with care: the assays were run in different laboratories. Values joined by “and” are separate records of one study, mostly repeats; a detail may differ. ± marks the error that the study gave.
PAL1 Y110F: PAL1 (Petroselinum crispum, UniProt P24481, Y110F)
SGK2: Serine/threonine-protein kinase Sgk2 (SGK2, Homo sapiens, UniProt Q9HBY8)
Sequence of UniProt Q9HBY8 (whole entry, looked up): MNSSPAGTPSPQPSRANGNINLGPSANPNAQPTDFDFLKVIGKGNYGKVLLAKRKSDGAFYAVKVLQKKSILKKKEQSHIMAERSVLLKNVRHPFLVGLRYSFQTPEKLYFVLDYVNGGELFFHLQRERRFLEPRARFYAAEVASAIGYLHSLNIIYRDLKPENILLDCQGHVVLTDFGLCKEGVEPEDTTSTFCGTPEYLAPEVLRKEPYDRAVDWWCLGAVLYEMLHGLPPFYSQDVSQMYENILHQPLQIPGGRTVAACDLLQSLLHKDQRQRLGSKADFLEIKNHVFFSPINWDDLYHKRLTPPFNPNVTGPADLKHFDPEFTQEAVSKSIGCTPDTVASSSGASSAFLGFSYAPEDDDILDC
Oprd1: Delta-type opioid receptor (Oprd1, Rattus norvegicus, UniProt P33533)
Sequence of UniProt P33533 (whole entry, looked up): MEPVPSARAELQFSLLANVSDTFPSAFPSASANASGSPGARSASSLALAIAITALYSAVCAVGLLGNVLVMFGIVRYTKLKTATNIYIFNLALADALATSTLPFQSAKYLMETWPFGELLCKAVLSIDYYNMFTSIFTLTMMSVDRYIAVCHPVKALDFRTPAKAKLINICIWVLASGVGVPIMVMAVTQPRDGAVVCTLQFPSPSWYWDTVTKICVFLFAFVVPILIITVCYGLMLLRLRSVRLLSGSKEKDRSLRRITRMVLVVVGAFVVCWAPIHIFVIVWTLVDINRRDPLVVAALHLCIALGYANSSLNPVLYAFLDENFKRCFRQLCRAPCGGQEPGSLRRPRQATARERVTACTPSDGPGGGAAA
Sequence of UniProt O08914 (whole entry, looked up): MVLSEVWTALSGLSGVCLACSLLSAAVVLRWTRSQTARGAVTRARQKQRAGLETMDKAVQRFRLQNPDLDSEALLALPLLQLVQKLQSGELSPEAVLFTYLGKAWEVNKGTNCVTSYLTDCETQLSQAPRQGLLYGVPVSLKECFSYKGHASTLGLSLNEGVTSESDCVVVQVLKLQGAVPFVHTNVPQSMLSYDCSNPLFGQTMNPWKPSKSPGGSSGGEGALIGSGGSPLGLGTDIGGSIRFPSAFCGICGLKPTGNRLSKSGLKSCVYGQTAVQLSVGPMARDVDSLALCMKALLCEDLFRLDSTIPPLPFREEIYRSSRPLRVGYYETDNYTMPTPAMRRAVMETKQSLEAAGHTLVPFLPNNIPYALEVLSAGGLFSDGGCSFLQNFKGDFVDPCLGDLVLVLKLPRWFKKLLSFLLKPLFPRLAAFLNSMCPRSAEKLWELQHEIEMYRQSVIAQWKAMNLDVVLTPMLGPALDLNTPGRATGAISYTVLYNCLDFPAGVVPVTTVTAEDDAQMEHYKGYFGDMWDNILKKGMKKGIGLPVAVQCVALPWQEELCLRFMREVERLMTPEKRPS
Sequence of UniProt Q9ULC6 (whole entry, looked up): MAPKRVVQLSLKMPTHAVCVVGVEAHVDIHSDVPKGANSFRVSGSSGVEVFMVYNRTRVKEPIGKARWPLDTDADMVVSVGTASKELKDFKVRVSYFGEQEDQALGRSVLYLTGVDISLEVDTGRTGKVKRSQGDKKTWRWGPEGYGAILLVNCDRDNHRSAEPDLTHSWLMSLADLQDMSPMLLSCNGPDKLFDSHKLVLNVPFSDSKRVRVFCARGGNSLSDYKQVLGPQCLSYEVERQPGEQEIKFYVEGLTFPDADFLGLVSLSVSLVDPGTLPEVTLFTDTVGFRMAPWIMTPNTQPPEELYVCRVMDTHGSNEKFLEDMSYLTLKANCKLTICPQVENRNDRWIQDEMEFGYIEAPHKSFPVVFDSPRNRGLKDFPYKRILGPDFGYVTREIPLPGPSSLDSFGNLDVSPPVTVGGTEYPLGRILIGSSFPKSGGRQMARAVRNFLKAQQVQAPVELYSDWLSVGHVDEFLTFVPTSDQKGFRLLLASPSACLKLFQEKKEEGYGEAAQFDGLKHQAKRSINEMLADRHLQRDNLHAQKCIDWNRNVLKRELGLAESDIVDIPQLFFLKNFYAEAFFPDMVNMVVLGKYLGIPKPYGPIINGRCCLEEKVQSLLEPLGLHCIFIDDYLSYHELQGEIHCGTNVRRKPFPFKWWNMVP
Sequence of UniProt Q9UH17 (whole entry, looked up): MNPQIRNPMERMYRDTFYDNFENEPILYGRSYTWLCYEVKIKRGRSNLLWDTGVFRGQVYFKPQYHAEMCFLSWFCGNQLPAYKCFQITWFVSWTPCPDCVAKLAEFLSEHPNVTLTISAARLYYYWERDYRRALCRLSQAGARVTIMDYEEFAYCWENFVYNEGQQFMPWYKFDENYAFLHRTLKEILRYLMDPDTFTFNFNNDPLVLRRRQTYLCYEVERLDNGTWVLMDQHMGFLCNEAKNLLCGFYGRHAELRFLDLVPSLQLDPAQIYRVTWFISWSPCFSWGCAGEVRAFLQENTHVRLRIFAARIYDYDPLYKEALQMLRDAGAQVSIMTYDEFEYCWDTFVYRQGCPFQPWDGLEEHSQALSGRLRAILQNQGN
Sequence of UniProt P22303 (whole entry, looked up): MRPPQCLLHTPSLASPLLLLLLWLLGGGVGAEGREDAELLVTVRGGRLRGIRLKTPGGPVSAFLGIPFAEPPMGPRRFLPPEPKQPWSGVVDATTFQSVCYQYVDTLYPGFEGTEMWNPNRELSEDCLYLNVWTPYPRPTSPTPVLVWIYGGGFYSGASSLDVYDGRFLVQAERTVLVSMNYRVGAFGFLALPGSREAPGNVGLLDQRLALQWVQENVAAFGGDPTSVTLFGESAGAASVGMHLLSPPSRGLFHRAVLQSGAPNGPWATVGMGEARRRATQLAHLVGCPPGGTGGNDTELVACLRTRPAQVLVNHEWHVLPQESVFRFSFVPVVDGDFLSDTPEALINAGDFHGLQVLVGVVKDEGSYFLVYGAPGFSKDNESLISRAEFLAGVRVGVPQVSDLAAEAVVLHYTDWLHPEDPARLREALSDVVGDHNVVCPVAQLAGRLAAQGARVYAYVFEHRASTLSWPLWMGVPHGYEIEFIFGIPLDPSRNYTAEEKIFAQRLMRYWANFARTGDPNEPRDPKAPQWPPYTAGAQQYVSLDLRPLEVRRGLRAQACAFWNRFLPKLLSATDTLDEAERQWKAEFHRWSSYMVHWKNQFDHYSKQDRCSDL
Sequence of UniProt Q9NRZ9 (whole entry, looked up): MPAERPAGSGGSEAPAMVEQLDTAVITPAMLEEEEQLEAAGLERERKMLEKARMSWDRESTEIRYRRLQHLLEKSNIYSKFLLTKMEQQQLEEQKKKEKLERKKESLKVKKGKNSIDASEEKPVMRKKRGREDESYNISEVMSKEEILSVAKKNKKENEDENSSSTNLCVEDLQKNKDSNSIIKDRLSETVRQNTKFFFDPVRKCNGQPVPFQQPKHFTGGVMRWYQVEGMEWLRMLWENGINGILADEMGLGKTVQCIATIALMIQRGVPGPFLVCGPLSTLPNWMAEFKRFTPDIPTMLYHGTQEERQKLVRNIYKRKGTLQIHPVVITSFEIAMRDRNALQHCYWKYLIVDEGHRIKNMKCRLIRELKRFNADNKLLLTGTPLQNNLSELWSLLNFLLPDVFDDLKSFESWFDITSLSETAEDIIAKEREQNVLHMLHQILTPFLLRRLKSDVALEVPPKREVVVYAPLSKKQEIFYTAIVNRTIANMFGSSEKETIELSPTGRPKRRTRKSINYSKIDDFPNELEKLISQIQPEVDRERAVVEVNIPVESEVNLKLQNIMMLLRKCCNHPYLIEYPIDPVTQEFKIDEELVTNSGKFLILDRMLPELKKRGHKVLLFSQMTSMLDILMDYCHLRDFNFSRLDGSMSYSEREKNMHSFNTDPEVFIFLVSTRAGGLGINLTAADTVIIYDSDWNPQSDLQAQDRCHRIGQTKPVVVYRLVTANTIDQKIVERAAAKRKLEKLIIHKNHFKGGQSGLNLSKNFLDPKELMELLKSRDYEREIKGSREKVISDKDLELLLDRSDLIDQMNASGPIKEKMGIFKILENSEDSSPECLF
Sequence of UniProt P43235 (whole entry, looked up): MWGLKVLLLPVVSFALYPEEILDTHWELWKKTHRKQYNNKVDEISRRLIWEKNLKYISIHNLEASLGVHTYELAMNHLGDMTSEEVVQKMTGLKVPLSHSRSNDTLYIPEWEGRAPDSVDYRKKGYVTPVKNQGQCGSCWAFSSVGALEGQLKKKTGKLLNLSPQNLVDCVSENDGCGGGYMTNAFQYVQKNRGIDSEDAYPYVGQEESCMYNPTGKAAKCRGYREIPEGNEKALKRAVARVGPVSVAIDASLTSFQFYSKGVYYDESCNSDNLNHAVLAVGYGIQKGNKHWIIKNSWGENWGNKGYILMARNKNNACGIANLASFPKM
Sequence of UniProt P23977 (whole entry, looked up): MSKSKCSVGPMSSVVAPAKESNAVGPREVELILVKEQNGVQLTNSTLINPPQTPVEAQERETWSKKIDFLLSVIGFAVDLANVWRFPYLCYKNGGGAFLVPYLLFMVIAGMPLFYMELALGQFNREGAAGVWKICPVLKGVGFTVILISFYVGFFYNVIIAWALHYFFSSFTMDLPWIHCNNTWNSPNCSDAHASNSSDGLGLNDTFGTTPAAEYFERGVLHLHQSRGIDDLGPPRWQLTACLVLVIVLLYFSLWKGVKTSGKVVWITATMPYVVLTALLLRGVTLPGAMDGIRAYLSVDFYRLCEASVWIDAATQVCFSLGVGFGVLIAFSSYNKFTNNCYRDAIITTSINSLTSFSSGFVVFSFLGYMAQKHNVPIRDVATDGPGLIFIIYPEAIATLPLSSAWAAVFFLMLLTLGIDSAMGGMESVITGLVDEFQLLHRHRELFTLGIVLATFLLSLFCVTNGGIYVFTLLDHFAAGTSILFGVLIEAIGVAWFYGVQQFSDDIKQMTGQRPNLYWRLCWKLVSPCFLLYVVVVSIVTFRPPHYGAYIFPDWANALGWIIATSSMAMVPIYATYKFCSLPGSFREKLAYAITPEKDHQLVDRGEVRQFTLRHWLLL
Sequence of UniProt P38489 (whole entry, looked up): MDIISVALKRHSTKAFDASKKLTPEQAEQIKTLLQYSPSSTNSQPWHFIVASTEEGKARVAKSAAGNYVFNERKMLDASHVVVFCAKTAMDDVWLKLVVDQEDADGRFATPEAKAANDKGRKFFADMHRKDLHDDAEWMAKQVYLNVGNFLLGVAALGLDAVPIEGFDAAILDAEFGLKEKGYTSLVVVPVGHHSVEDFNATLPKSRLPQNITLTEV

C=C(c1ccccc1)[C@@H](N)P(=O)(O)O — -TΔS (PAL1 Y110F; binding, ITC): 1.4 kcal/mol
Cc1ncc([N+](=O)[O-])n1CC(O)Cn1cc(CO[C@]2(C(=O)O)C[C@H](O)[C@@H](NC(=O)CF)[C@H]([C@H](O)[C@H](O)CNC(=O)c3ccc(Oc4ccccc4)cc3)O2)nn1 (some centres unmarked) — -TΔS (CD22 (Homo sapiens, UniProt P20273); isothermal titration calorimetry): 0.21 ± 0.03 kcal/mol
O=C(O)c1ccccc1/C=N/Nc1nc(-c2ccccc2Cl)cs1 — inhibition (SGK2; enzyme activity, inhibitor; 1 µM): -0.62%
CC[C@@H](C)[C@@H]1CN([C@H](Cc2ccc3ccccc3c2)CN2CCC[C@H]2CN2CCNC[C@@H]2Cc2ccc3ccccc3c2)CCN1CCC12CC3CC(CC(C3)C1)C2 — remaining binding (Oprd1; radioligand binding; rat brain membranes; 500 nM, pH 7.5, 25 °C, with: 2 nM [3H]DPDPE): 95.2%
N[C@H](Cc1ccccc1)P(=O)(O)O — ΔG (PAL1 Y110F; binding, ITC): -7.2 kcal/mol
CCCCC1CNCCN1CC1CCCN1CC(CC1CCCCC1)N1CCN(CCCC2CCCC2)C(Cc2ccc(O)cc2)C1 (centres unmarked) — remaining binding (Oprd1; radioligand binding; rat brain membranes; 500 nM, pH 7.5, 25 °C, with: 2 nM [3H]DPDPE): 88.5%
CCCC[C@H](NC(=O)CN1CCC(NC(=O)CN2CCN(CC(N)=O)CCN(CC(N)=O)CCN(CC(N)=O)CC2)CC1)C(=O)N[C@H]1CC(=O)NCCCC[C@@H](C(N)=O)NC(=O)[C@H](Cc2c[nH]c3ccccc23)NC(=O)[C@H](CCCNC(=N)N)NC(=O)[C@@H](Cc2ccccc2)NC(=O)[C@H](Cc2c[nH]cn2)NC1=O [lead-203 labelled] — tissue uptake (male C57BL/6J mice B16-F10 tumour, blood; intravenous, 20 pmol, 2 h): < 1 %ID/g
CC[C@H](C)[C@H](NC(=O)[C@H](CO)NC(=O)[C@H](Cc1ccc(O)cc1)NC(=O)[C@H](Cc1ccc(O)cc1)NC(=O)[C@H](CC(N)=O)NC(=O)CNC(=O)[C@H](CO)NC(=O)[C@H](Cc1ccc(O)cc1)NC(=O)[C@H](CO)NC(=O)[C@H](CO)NC(=O)[C@H](CC(N)=O)NC(=O)COCCOCCNC(=O)CN1CCN(CC(=O)O)CCN(CC(=O)O)CCN(CC(=O)O)CC1)C(=O)N[C@@H](CC(C)C)C(N)=O [copper-64 labelled] — maximum pancreas uptake (dynamic PET; tamoxifen-induced PDAC mouse model, pancreas; 3.5 min, CLDN4-expressing tumours): 16.2 %IA/cc
CC[C@H](C)[C@H](NC(=O)[C@H](CCCCN)NC(=O)CNC(=O)[C@H](CC(C)C)NC(=O)[C@H](Cc1ccccc1)NC(=O)[C@H](CCCCN)NC(=O)[C@H](CO)NC(=O)[C@H](Cc1ccccc1)NC(=O)[C@H](Cc1c[nH]c2ccccc12)NC(=O)[C@H](CCC(N)=O)NC(=O)[C@@H](NC(=O)[C@H](Cc1ccccc1)NC(=O)CCCCCNC(=O)CN1CCN(CC(=O)O)CCN(CC(=O)O)CCN(CC(=O)O)CC1)C(C)C)C(=O)N[C@@H](CCC(=O)O)C(=O)N1CCC[C@H]1C(=O)N[C@@H](CC(=O)O)C(=O)N[C@H](C(=O)N[C@@H](CO)C(=O)N[C@@H](CCC(N)=O)C(=O)N[C@H](C(=O)N[C@@H](CCC(N)=O)C(=O)N[C@@H](CC(=O)O)C(=O)N1CCC[C@H]1C(=O)N[C@@H](CC(N)=O)C(=O)N[C@@H](CC(=O)O)C(=O)N[C@@H](CCC(N)=O)C(=O)N[C@@H](Cc1ccc(O)cc1)C(=O)N[C@@H](CCC(=O)O)C(=O)N1CCC[C@H]1C(=O)N[C@@H](Cc1ccccc1)C(=O)O)C(C)C)C(C)C [copper-64 labelled] — SUVmean (dynamic PET; mouse, CT26 tumour, untreated, tumour; intravenous, 100 µCi/mouse, 1260 s): 1.04 SUV
CN(C)[C@H]1C[C@@]23CC[C@@]4(O2)C(=CC[C@]2(C)[C@@H](c5ccc6ccncc6c5)CC[C@H]24)C=C3[C@@H](O)[C@@H]1O — inhibition (STK38L (Homo sapiens, UniProt Q9Y2H1); ATP probe labelling, inhibitor, KiNativ profiling; 0.1 µM): 3.2%
C#CCCCCOc1ccc2c(c1)CCCN2C(=O)CCl — cysteine reactivity ratio (HELLS (Homo sapiens, UniProt Q9NRZ9); MS-ABPP alkyne probe; H460 cell lysate; relative to: high over low probe): 1.49
Cc1cc(-c2ccc3ccccc3c2)nnc1NCCN1CCN(C)CC1 — uptake inhibition (Slc6a3 (Rattus norvegicus, UniProt P23977); monoamine uptake; rat synaptosomes; concentration not given): negative
CC(C)(C)C(=O)OCOP(=O)(OCOC(=O)C(C)(C)C)C1CCCN(O)C1=O (centres unmarked) — GI50 (MCF7): 338 nM
Cc1ccc(NS(=O)(=O)c2c(C(=O)N3CCCCCC3)c(C)n(C)c2C)c(Cl)c1 — viability (CV-1; African green monkey cells; 0.137 µM, 60 (unit not given)): 100% and 96.6%
CC[C@H](C)[C@@H]([C@@H](CC(=O)N1CCC[C@H]1[C@H](OC)[C@@H](C)C(=O)N[C@H](C)[C@@H](O)c1ccccc1)OC)N(C)C(=O)[C@@H](NC(=O)[C@H](C(C)C)N(C)C(=O)OCc1ccc(NC(=O)[C@H](CCCNC(N)=O)NC(=O)[C@@H](NC(=O)CCCCCN2C(=O)CC(SC[C@H](NC(=O)[C@H](CC(=O)O)NC(=O)[C@H](Cc3ccc(O)cc3)NC(=O)[C@H](Cc3c[nH]c4ccccc34)NC(=O)[C@@H](N)CCCNC(=N)N)C(=O)O)C2=O)C(C)C)cc1)C(C)C (some centres unmarked) — concentration (C57BL/6 mouse, healthy, kidney; intraperitoneal, 2.5 mg/kg, 6 h): not detected
N[C@H](C(=O)N1CCCC1)C1CCN(c2nccc3c(-c4ncc(Cl)cc4Cl)cccc23)CC1 — kcat (PADI1 (Homo sapiens, UniProt Q9ULC6); enzyme activity; 0.6144 µM, with: Ca2+ 0.25 mM): 0.0677 s⁻¹ and 0.0854 s⁻¹
O=C(O)c1cccc(CP(=O)(O)O)n1 — koff (Beta-lactamase L1 (Stenotrophomonas maltophilia, UniProt P52700); enzyme activity, inhibitor; with: nitrocefin): 0.003 ± 0.0005 s⁻¹
COc1c(N2CC3CCCN(C(=O)OCc4cnc([N+](=O)[O-])s4)C3C2)c(F)cc2c(=O)c(C(=O)O)cn(C3CC3)c12 (centres unmarked) — initial rate (nfsB (Escherichia coli K-12, UniProt P38489); substrate; with: NADH 100 µM): 3.28 ± 1.14 µM/min
COc1ccccc1-c1n[nH]c2nc(N[C@H]3CC[C@H](NS(=O)(=O)CC(C)C)CC3)ncc12 — remaining binding (cdc2-related kinase 12 (Leishmania donovani, UniProt A0A3S7WQK2); kinobead competition pull-down; Leishmania donovani, cell extract; 2 µM; relative to: vehicle): 8.45%
N=C(N)NCCC[C@@H]1NC(=O)[C@H](CCCCNC(=O)CCC(NC(=S)Nc2ccc(CC3CN(CC(=O)O)CCN(CC(=O)O)CCN(CC(=O)O)CCN3CC(=O)O)cc2)C(=O)NCCCC[C@@H]2NC(=O)[C@@H](Cc3ccc(O)cc3)NC(=O)[C@H](CC(=O)O)NC(=O)CNC(=O)[C@H](CCCNC(=N)N)NC2=O)NC(=O)[C@@H](Cc2ccc(O)cc2)NC(=O)[C@H](CC(=O)O)NC(=O)CNC1=O (some centres unmarked) [scandium-44 labelled] — tissue uptake (ex vivo γ-counting; female athymic nude mice, U-87 MG xenograft, brain; intravenous, 4 h): 0.03 ± 0.01 %ID/g
CC(C)CC(O)(CC(C)C)c1cn(C(=O)N2CCCC2)nn1 — SILAC activity ratio (Faah (Mus musculus, UniProt O08914); probe labelling, inhibitor, competitive ABPP-SILAC; mouse T cells; concentration not given, 4 h, single peptide; relative to: treated over DMSO cells, lower = stronger inhibition): 1.25 and 1.21 and 1.31 and 1.26 and 1.22 and 1.32 and 1.2 and 1.18
O=C(N[C@@H]1c2ccccc2C[C@H]1N1CCCC1)c1ccc(-c2ccnc3[nH]ccc23)nc1 — remaining binding (Ribosomal protein S6 kinase alpha-4, C-terminal kinase domain (RPS6KA4, Homo sapiens, UniProt O75676); binding, competition with immobilised ligand; 3 µM): 8.7%
C[C@@H](O)[C@@H]1CN([C@@H](CC2CCCCC2)CN2CCC[C@H]2CN2CCNC[C@@H]2CO)CCN1CCc1ccc(Cl)c(Cl)c1 — remaining binding (Oprd1; radioligand binding; rat brain membranes; 500 nM, pH 7.5, 25 °C, with: 2 nM [3H]DPDPE): 91.7%
C[C@@]12C(=O)CC[C@H]1[C@@H]1CC=C3C[C@@H](O)CC[C@]3(C)[C@H]1C=C2c1cccnc1 — remaining activity (7-alpha-hydroxycholest-4-en-3-one 12-alpha-hydroxylase (Homo sapiens, UniProt Q9UNU6); inhibitor; 80 µM, with: 7α-hydroxycholest-4-en-3-one 0.5 µM): 93.7 ± 2.04%
O=C(O)c1ccc(-c2nc(-c3ccccc3Cl)c3sccn23)cc1 — remaining activity (ACHE (Homo sapiens, UniProt P22303); 10 µM): 98.2% and 119%
Cc1sc2c(c1C)C(c1ccc(Cl)cc1)=N[C@@H](CC(=O)OC(C)(C)C)c1nnc(C)n1-2 — binding stoichiometry (Bromodomain-containing protein 3, BD2 (BRD3, Homo sapiens, UniProt Q15059); isothermal titration calorimetry; concentration not given, 15 °C, reverse titration): 1.03 ± 0.002
COCC1CCCCN1C(=O)n1cc(C(O)(c2ccccc2)c2ccccc2)nn1 (centres unmarked) — SILAC activity ratio (Neutral cholesterol ester hydrolase 1 (Mus musculus, UniProt Q8BLF1); probe labelling, inhibitor, competitive ABPP-SILAC, measured: Aadacl1; mouse T cells; concentration not given, 4 h, protein level; relative to: treated over DMSO cells, lower = stronger inhibition): 1.22
CN(C)CCCSC(=S)N1CCN(C(=O)/C=C/c2coc3ccccc3c2=O)CC1 — MST response (Nucleoprotein (N, Tomato spotted wilt virus, UniProt P25999, R94A/Y184A); binding, microscale thermophoresis; 7.812 µM; dose series): 0.851 a.u.
Cc1ccc(N2CC3CCC(C2)N3C)cc1C(=O)N[C@H](C)c1cc(-c2cnn(C)c2)nc2ccccc12 — remaining activity (Cathepsin K (CTSK, Homo sapiens, UniProt P43235); enzyme activity; 10 µM): 101%
C[C@H](NCc1ccc(-c2ccc(C(F)(F)F)cc2)cc1)C(N)=O — inhibition (ACVR1B (Homo sapiens, UniProt P36896); cell-free assay, competition with immobilised ligand; 1 µM): 5%
CC(C)C[C@H](NC(=O)[C@H]1O[C@@H]1C(=O)O)C(=O)NCCCCN=C(N)N — Hill slope (Papain (Carica papaya, UniProt P00784); enzyme activity, inhibitor): -1.36
CCOC(=O)[C@@H]1Cc2c(cc([N+](=O)[O-])cc2[N+](=O)[O-])[C@H](O)[C@]12C(=O)Nc1ccc(Br)cc12 — remaining binding (COQ8A (Homo sapiens, UniProt Q8NI60); binding, competition with immobilised ligand; 0.1 µM): 100%
CC(C)[C@H]1NC(=O)C[C@H]2/C=C/CCSSC[C@@H](NC1=O)C(=O)N[C@H](Cc1cccc3ccccc13)C(=O)NCC(=O)O2 — inhibition (FES (Homo sapiens, UniProt P07332); enzyme activity, inhibitor; 10 µM): 2.1%
C=CC(=O)Nc1cc(-c2ccc(C(=O)N3CCCC(O)(CC)C3)cc2)ccc1F (centres unmarked) — adducted protein (DNA dC->dU-editing enzyme APOBEC-3B, C-terminal domain (Homo sapiens, UniProt Q9UH17); covalent adduct, intact protein MS, measured: mass +397 Da adduct of 25735 Da; 125 µM, 3 h, 5-fold molar excess): 37% and 35%
O=C1NC(=O)c2c1c1cc(F)c[n+]3c1c1c2c2cc(O)ccc2[n]1[Ru-4]312([N]=C=S)[S+]3CC[S+]1CC[S+]2CC3 (centres unmarked) — remaining activity (SGK2; enzyme activity; 100 nM, human enzyme, with: 10 µM ATP; relative to: untreated): 27%
O=C1NC2(CC2)COc2ncc(F)cc2[C@H]2COCCN2c2ccn3ncc1c3n2 — organ-to-brain weight ratio (Sprague-Dawley rat, female, ovaries; oral, 5 mg/kg/day, 4 weeks dosing, end of recovery): 5.35 ± 0.58%
Cc1cc(C(=O)Nc2nc3cccc(C)c3n2[C@H]2CCCCN(C(=O)/C=C/CN(C)C)C2)ccn1 — cell growth (Trypanosoma brucei brucei; 2T1 parental; 10 x EC50, 48 h; relative to: time 0 h): 15.3% and 16.3% and 17.3%
Cc1nc2cccc(OCC(C)(C)C(=O)NC(C)C)c2c(N)c1C(=O)[O-].[Na+] — revertant colonies (Escherichia coli; reverse mutation, preincubation; WP2 uvrA; 0.80 mg/plate, without S9): 27 ± 2 colonies/plate
C=CC(=O)NC[C@H](NC(=O)[C@H](CC1CCCCC1)NC(=O)[C@H](CCC(N)=O)NC(C)=O)C(=O)N[C@@H](CC(C)C)C(=O)N[C@@H](Cc1ccccc1)C(=O)O — ΔG (Beta sliding clamp (Escherichia coli, UniProt P0A988); binding, isothermal titration calorimetry; 25 °C): -9.2 kcal/mol
CC(=O)N[C@H]1[C@@H](O)[C@H](O)[C@@H](CO)O[C@H]1O — TΔS (N-acetylmannosamine kinase (nanK, Haemophilus influenzae, UniProt Q4QP43, T131V); binding): 1.94 kcal/mol
CS(C)(=O)=Nc1ccc(-c2ccc(-c3nc4cc(O[C@@H]5CO[C@H]6[C@@H]5OC[C@H]6O)[nH]c4cc3F)cc2)cc1 — inhibition (CLK2 (Homo sapiens, UniProt P49760); enzyme activity, inhibitor; 10 µM): 3%

Some of these lines once more:
CS(C)(=O)=Nc1ccc(-c2ccc(-c3nc4cc(O[C@@H]5CO[C@H]6[C@@H]5OC[C@H]6O)[nH]c4cc3F)cc2)cc1 — inhibition (CLK2 (Homo sapiens, UniProt P49760); enzyme activity, inhibitor; 10 µM): 3%
Cc1nc2cccc(OCC(C)(C)C(=O)NC(C)C)c2c(N)c1C(=O)[O-].[Na+] — revertant colonies (Escherichia coli; reverse mutation, preincubation; WP2 uvrA; 0.80 mg/plate, without S9): 27 ± 2 colonies/plate
Cc1ncc([N+](=O)[O-])n1CC(O)Cn1cc(CO[C@]2(C(=O)O)C[C@H](O)[C@@H](NC(=O)CF)[C@H]([C@H](O)[C@H](O)CNC(=O)c3ccc(Oc4ccccc4)cc3)O2)nn1 (some centres unmarked) — -TΔS (CD22 (Homo sapiens, UniProt P20273); isothermal titration calorimetry): 0.21 ± 0.03 kcal/mol
C#CCCCCOc1ccc2c(c1)CCCN2C(=O)CCl — cysteine reactivity ratio (HELLS (Homo sapiens, UniProt Q9NRZ9); MS-ABPP alkyne probe; H460 cell lysate; relative to: high over low probe): 1.49
